Published values gathered from unrelated publications.
Each line is one published result; not all experiments were run side by side.
Effect on: metabolic stability
Host: human

Compound = Nc1nc(SCc2ccc(Cl)cc2)nn1S(=O)(=O)c1ccc2c(c1)CCO2; medium = liver microsomes; concentration = 1 µM; pH = pH 7.4; quantity = microsomal CLint; value = 219 µL/min/mg
Compound = COc1ccc(C(N)=O)cn1; medium = hepatocytes; concentration = 1 µM; pH = pH 7.4; quantity = hepatocyte CLint; value = 12 µL/min/10⁶ cells
Compound = Cn1ccc([C@H](CCO)Nc2nc(N3CCOCC3)c3cc(-c4ccccc4)sc3n2)n1; medium = hepatocytes; quantity = hepatocyte CLint; value = 15 µL/min/10⁶ cells
Compound = CNC(=O)C1CCCN(C(=O)C2CC3CCC2N3C(=O)[C@@H]2C[C@@H](O)CN2C(=O)NCc2cccc(Cl)c2F)C1 (mixture of isomers); medium = liver microsomes; quantity = microsomal CLint; value = 26.1 µL/min/mg
Compound = Fc1ccc(OCC2CN(Cc3ncn4ccccc34)CCC2(F)F)cc1 (stereo not drawn); medium = liver microsomes; quantity = scaled CLint; value = 260 mL/min/kg
Compound = O=C(c1ccc(C23CC(S(F)(F)(F)(F)F)(CO2)C3)cc1)N1CCN(c2ncccn2)CC1; medium = liver microsomes; quantity = microsomal CLint; value = 27 µL/min/mg
Compound = Cn1ncc2cc(CN3CCC(F)(F)C(COc4ccc(C#N)c(F)c4)C3)ccc21 (stereo not drawn); medium = liver microsomes; quantity = scaled CLint; value = 148 mL/min/kg
Compound = O=C(Nc1nc(C(F)(F)F)co1)C1c2ccccc2Oc2ccccc21; medium = liver microsomes; concentration = 1 µM; pH = pH 7.4; quantity = scaled CLint; value = 262 mL/min/kg
Compound = Fc1ccc(OCC2CN(Cc3cn4ccccc4n3)CCC2(F)F)cc1F (stereo not drawn); medium = liver microsomes; quantity = scaled CLint; value = 456 mL/min/kg
Compound = O=S(=O)(Nc1ccc(CO)cc1)c1ccc(Cl)c(Cl)c1; medium = hepatocytes; concentration = 1 µM; quantity = hepatocyte CLint; value = 118 µL/min/10⁶ cells
Compound = CN(CCC#N)c1nc(NCC[C@H]2CCCN2C)nc2sc(-c3ccccc3)cc12; medium = hepatocytes; quantity = hepatocyte CLint; value = 230 µL/min/10⁶ cells
Compound = Fc1ccc(OCC2CN(Cc3cn4ccccc4n3)CCC2(F)F)cc1 (stereo not drawn); medium = liver microsomes; quantity = scaled CLint; value = 349 mL/min/kg
Compound = Cc1cc(C(=O)Nc2nc3cccc(C)c3n2[C@H]2CCCCN(C(=O)/C=C/CN(C)C)C2)ccn1; medium = liver microsomes; quantity = microsomal CLint; value = 42.4 µL/min/mg
Compound = CNc1cc(C)c(C(N)=O)cn1; medium = hepatocytes; concentration = 1 µM; pH = pH 7.4; quantity = hepatocyte CLint; value = 3.9 µL/min/10⁶ cells
Compound = O=C(c1ccc(-c2ccccc2)cc1)N1CCCCC1; medium = liver microsomes; concentration = 2 µM; pH = pH 7.4; quantity = microsomal CLint; value = 12 µL/min/mg
Compound = CCC(CC)CNC(=N)NC(=N)NCCCCCCNC(=N)NC(=N)NCC(CC)CC; medium = liver microsomes; concentration = 2 µM; quantity = microsomal CLint; value = 2.07 µL/min/mg
Compound = C=CC(=O)N1CCCC(n2c(=O)c3ncccc3n(Cc3ccc(Oc4ccccc4)cc3)c2=O)C1 (stereo not drawn); medium = hepatocytes; concentration = 1 µM; quantity = hepatocyte CLint; value = 8.2 µL/min/10⁶ cells
Compound = CCC1(CC)CC(=O)N(C2CCOc3ccc(C(=O)NC4CC(C)(C)Oc5ccccc54)cc32)C(=N)N1 (stereo not drawn); medium = hepatocytes; quantity = hepatocyte CLint; value = 11.6 µL/min/10⁶ cells
Compound = O=C(N1CCCCC1)C12CC(c3ccccc3)(C1)C2(Br)Br; medium = liver microsomes; concentration = 2 µM; pH = pH 7.4; quantity = microsomal CLint; value = 139 µL/min/mg
Compound = Fc1ccc(OCC2CN(Cc3ncc4ccccn34)CCC2(F)F)cc1 (stereo not drawn); medium = liver microsomes; quantity = scaled CLint; value = 1390 mL/min/kg
Compound = CNc1cc(N)c(C(N)=O)cn1; medium = hepatocytes; concentration = 1 µM; pH = pH 7.4; quantity = hepatocyte CLint; value = 4.3 µL/min/10⁶ cells

A few entries again:
Compound = CCC(CC)CNC(=N)NC(=N)NCCCCCCNC(=N)NC(=N)NCC(CC)CC; medium = liver microsomes; concentration = 2 µM; quantity = microsomal CLint; value = 2.07 µL/min/mg
Compound = Fc1ccc(OCC2CN(Cc3ncn4ccccc34)CCC2(F)F)cc1 (stereo not drawn); medium = liver microsomes; quantity = scaled CLint; value = 260 mL/min/kg
